Experimental data gathered from unrelated publications.
Each line is one published result; not all experiments were run side by side. Several values in a cell are separate wells, animals, samples, runs or records. ± marks the error that the study gave.

For CNC(=O)[C@@H](NC(=O)[C@H](CC(C)C)[C@H](O)C(=O)NO)C(C)(C)C, the remaining activity was 96.4% and 100% and 94.7% (Daboia russelii venom proteases (SVMP); protease activity, inhibitor; MP population; 0.001 µM, together with: azocasein substrate; reference: venom alone).
For Cc1ccc(Cl)cc1N1CCN(CCCNc2ncnc3onc(-c4ccc(F)cc4)c23)CC1, the AC50 was 11200 nM (SARS-CoV-2; cytopathic effect, cell-based CPE; USA_WA1/2020; round 1, 5-point dilution).
NC(=O)CCNC(=O)c1ccccc1S gave an EC50 of 3460 ± 1850 nM (HIV-1; viral replication; human PBMC, subtype F 93BR020, dual-tropic clinical isolate).
`delavirdine` gave an EC50 of over 3700 nM (HIV-1; viral replication; MT-2, Y181C, NNRTI-resistant).
For CC(C)(C#Cc1ccc(-c2ccc(Cl)c3c(NS(C)(=O)=O)nn(CC(F)(F)F)c23)c([C@H](CC2CCCC2)NC(=O)Cn2nc(C(F)(F)F)c3c2C(F)(F)[C@@H]2C[C@H]32)n1)S(C)(=O)=O, the EC50 was 5.8 ± 4.2 nM (HIV-1; viral replication).
Nc1ncnc2c([C@@H]3N[C@H](CO)[C@@H](O)[C@H]3O)c[nH]c12 gave an inhibition of 3.8% (Nipah henipavirus; viral replication; HeLa, Malaysia; 6.3 µM).
For Cn1c(Cn2ccc(C(F)(F)F)c(Oc3cc(Cl)cc(C#N)c3)c2=O)n[nH]c1=O, the EC50 was 2 ± 0.7 nM (HIV-1; viral replication, single-round infection; RT mutant P236L).
CC[C@H](C)[C@H](NC(=O)[C@H](CC(C)C)NC(=O)[C@H](Cc1c[nH]c2ccccc12)NC(=O)[C@H](CCC(N)=O)NC(=O)[C@@H](NC(=O)[C@H](Cc1ccccc1)NC(=O)[C@H](C)NC(=O)[C@H](CCCCNC(=O)COCCOCCNC(=O)COCCOCCNC(=O)CC[C@H](NC(=O)CCCCCCCCCCCCCCCCCCC(=O)O)C(=O)O)NC(=O)[C@H](CCC(N)=O)NC(=O)[C@H](C)NC(=O)[C@@H](NC(=O)[C@H](CCCCN)NC(=O)[C@H](CC(=O)O)NC(=O)[C@H](CC(C)C)NC(=O)C(C)(C)NC(=O)[C@@H](NC(=O)[C@H](CO)NC(=O)[C@H](Cc1ccc(O)cc1)NC(=O)[C@H](CC(=O)O)NC(=O)[C@H](CO)NC(=O)[C@@H](NC(=O)[C@H](Cc1ccccc1)NC(=O)[C@@H](NC(=O)CNC(=O)[C@H](CCC(=O)O)NC(=O)C(C)(C)NC(=O)[C@@H](N)Cc1ccc(O)cc1)[C@@H](C)O)[C@@H](C)O)[C@@H](C)CC)[C@@H](C)CC)C(C)C)C(=O)N[C@@H](C)C(=O)NCC(=O)NCC(=O)N1CCC[C@H]1C(=O)N[C@@H](CO)C(=O)N[C@@H](CO)C(=O)NCC(=O)N[C@@H](C)C(=O)N1CCC[C@H]1C(=O)N1CCC[C@H]1C(=O)N1CCC[C@H]1C(=O)N[C@@H](CO)C(N)=O — result for “subjects with adverse events”: 0% (refers to: Dizziness; healthy subjects; 5/5/8/10 mg titrated, multiple ascending dose).
With Nc1c(C(=O)NCc2ccc(F)cc2F)c(=O)n(O)c2ncc(CCCCCCO)cc12 the EC50 was 9.4 ± 3.6 nM (HIV-1; viral replication, single-round infectivity; integrase G140S/Q148H).
The EC50 of CC(C)(C#Cc1ccc(-c2ccc(Cl)c3c(NS(C)(=O)=O)nn(CC(F)(F)F)c23)c([C@@H](CC2CC2)NC(=O)Cn2nc(C(F)(F)F)c3c2C(F)(F)[C@@H]2C[C@H]32)n1)S(C)(=O)=O is reported as 2300 ± 200 nM (HIV-1; viral replication).
The EC50 of Cc1cc(/C=C/C#N)cc(C)c1Nc1nc(Nc2ccc(/C=C/C#N)cc2)ncc1N is reported as over 100 nM (HIV-1; viral replication, single-round infection; RT mutant K101P).
With CC(Nc1nc(N2CCN(CCN)CC2)nc2ccccc12)c1ccccc1 (stereo not drawn) the efficacy was 52.2% (SARS-CoV-2; cytopathic effect, cell-based CPE; USA_WA1/2020; round 2, 5-point dilution).
For Cc1cc(/C=C/C#N)cc(C)c1-n1cnc2cnc(Nc3ccc(/C=C/C#N)cc3)nc21, the EC50 was 552 ± 86.7 nM (HIV-1; viral replication, single-round infection; RT mutant K101P/V179I).
Cc1cn([C@H]2C[C@H](N=[N+]=[N-])[C@@H](CO)O2)c(=O)[nH]c1=O has an EC50 of 2.37 ± 0.08 nM (HIV-1; viral replication; human PBMC, group O BCF01, CCR5-tropic clinical isolate).
Cn1cnc(Cn2c(=O)[nH]/c(=N\c3cc4cn(C)nc4cc3Cl)n(Cc3cc(F)c(F)cc3F)c2=O)n1: “patients with adverse event” 0% (human, severe renal impairment; oral, 375 mg, hypertriglyceridaemia TEAE, Moderate severity).
The EC50 of CC(C)(C#Cc1ccc(-c2ccc(Cl)c3c(NS(C)(=O)=O)nn(CC(F)(F)F)c23)c([C@H](CC2CCCCC2)NC(=O)Cn2nc(C(F)(F)F)c3c2C(F)(F)[C@H]2C[C@@H]32)n1)S(C)(=O)=O is reported as 203 ± 49 nM (HIV-1; viral replication).
With Cc1cc(C#N)cc(C)c1Oc1nc(Nc2ccc(C#N)cc2)nc(N)c1Br the EC50 was 37.9 ± 1.6 nM (HIV-1; viral replication; MT4, RES056 K103N+Y181C).
For CC(C)(C#Cc1ccc(-c2ccc(Cl)c3c(NS(C)(=O)=O)nn(CC(F)(F)F)c23)c([C@H](Cc2cc(F)cc(F)c2)NC(=O)Cn2nc(C(F)(F)F)c3c2C(F)(F)[C@@H]2C[C@H]32)n1)S(C)(=O)=O, the EC50 was over 15000 nM (HIV-1; viral replication).
The EC50 of Nc1ccn([C@H]2CC[C@@H](CO)O2)c(=O)n1 is reported as 771 ± 272 nM (HIV-1; viral replication, MAGI; NL4-3 D36G Env-resistant mutant).
The EC50 of O=C1Nc2ccc(Cl)cc2[C@@](C#CC2CC2)(C(F)(F)F)O1 is reported as 0.3 ± 0.02 nM (HIV-1; viral replication, single-round infection; RT mutant E40K).
COc1cc2c(cc1Cc1cccc(Cl)c1F)c(=O)c(C(=O)O)cn2[C@H](CO)C(C)C gave an EC50 of 5700 ± 1100 nM (HIV-1; viral replication, single-round infectivity; integrase G140S/Q148H).
For Cc1cc(/C=C/C#N)cc(C)c1Nc1nc(Nc2ccc3cc(C#N)ccc3c2)ncc1N, the EC50 was 308 ± 56.6 nM (HIV-1; viral replication, single-round infection; RT mutant K101P/V179I).
CCCC(=O)OCSc1ccccc1C(=O)NCCC(N)=O has an EC50 of 2870 ± 3060 nM (HIV-1; viral replication; human PBMC, subtype A 92RW009, CCR5-tropic clinical isolate).
For Nc1c(C(=O)NCc2ccc(F)cc2F)c(=O)n(O)c2ncc(CCS(=O)(=O)c3ccccc3)cc12, the EC50 was 5.2 ± 0.3 nM (HIV-1; viral replication, single-round infectivity; integrase G140S/Q148H).
